Assay results gathered from unrelated publications.
Protocols differ between the studies behind these lines. ± marks the error that the study gave.

O=C(NS(=O)(=O)c1cccs1)c1cc2ccccc2n1Cc1ccc(Br)c2ccccc12
Tmax (Sprague-Dawley rat, male, plasma; oral, 20 mg/kg): 60 min

Cc1cc2c(cc1O)C=C1C=CC(=O)C(C)(C)[C@H]1CC2
Tmax (Sprague-Dawley rat male, plasma; iv, 2 mg/kg): 4.8 min

C=C(NC(=O)c1csc(-c2nc3c(cc2O)-c2nc(cs2)C(=O)NC(C(C)O)C(=O)NC(=C(C)OC)c2nc(cs2)C(=O)NC2c4nc(cs4)C(=O)NC(COC(=O)c4c5c6c(cccc6n4O)COC(=O)C(OC4CC(C)(O)C(N(C)C)C(C)O4)C2OC5)c2nc-3cs2)n1)C(N)=O (stereo not drawn)
Tmax (Sprague-Dawley rat, male, plasma; intravenous infusion, 6 mg/kg, multiple doses, day 1): 4.8 min

OC1(C(F)(F)F)CCN(c2nc(Nc3ccnc(C(F)(F)F)c3)nc(-c3cccc(C(F)(F)F)n3)n2)C1 (stereo not drawn)
Tmax (Sprague-Dawley rat, both sexes, plasma; oral gavage, 5 mg/kg): 380 ± 49 min

COc1ccc([C@@H]2CC(=O)c3c(O)cc(O[C@@H]4O[C@H](CO)[C@@H](O)[C@H](O)[C@H]4O[C@@H]4O[C@@H](C)[C@H](O)[C@@H](O)[C@H]4O)cc3O2)cc1O
Tmax (Sprague-Dawley rat, male, lean, plasma; intravenous, 4 mg/kg): 50 ± 17.3 min

O=C(O)CN1CCN(CC(=O)O)CCN(C(CCC(=O)NCc2ccc(NC(=S)NCCOCCOCCOCCNC(=O)CCCc3ccc(I)cc3)cc2)C(=O)O)CC1 (stereo not drawn)
Tmax (dynamic PET/CT; Sprague-Dawley rats female, liver; intracisternal infusion, median): 110 min

O=C(O)/C=C\c1cc2ccoc2cc1O[C@@H]1O[C@H](CO)[C@@H](O)[C@H](O)[C@H]1O
Tmax (rat, plasma; oral, 217 mg/kg Pc extract, dosed as Pc extract): 130 ± 69 min

CC[C@H](C)[C@H](NC(=O)[C@H](Cc1ccc(O)cc1)NC(=O)[C@@H](NC(=O)[C@H](CCCNC(=N)N)NC(=O)[C@@H](N)CC(=O)O)C(C)C)C(=O)N[C@@H](Cc1c[nH]cn1)C(=O)N1CCC[C@H]1C(=O)O
Tmax (LC-MS/MS; Sprague-Dawley rat, plasma; sc, 10 mg/kg/day, day 27): 15 min

CCCC[C@H](OC(C)=O)c1ccccc1C(=O)O
Tmax (Sprague-Dawley rats, both sexes, whole blood; intravenous, 5 mg/kg single dose): 1.02 min

Repeated from above:
CCCC[C@H](OC(C)=O)c1ccccc1C(=O)O
Tmax (Sprague-Dawley rats, both sexes, whole blood; intravenous, 5 mg/kg single dose): 1.02 min
